Measured values gathered from unrelated publications.
Protocols differ between the studies behind these lines.
Organism: Enterococcus faecalis

Compound	effect on	method	strain	time	temperature	MIC
C#CCOc1ccc(CN[C@@]2(C)C[C@H](O[C@H]3[C@H](Oc4c5cc6cc4Oc4ccc(cc4Cl)[C@@H](O)[C@@H](NC(=O)[C@@H](CC(C)C)NC)C(=O)N[C@@H](CC(N)=O)C(=O)N[C@H]6C(=O)N[C@H]4C(=O)N[C@H](C(=O)N[C@H](C(=O)O)c6cc(O)cc(O)c6-c6cc4ccc6O)[C@H](O)c4ccc(c(Cl)c4)O5)O[C@H](CO)[C@@H](O)[C@@H]3O)O[C@@H](C)[C@H]2O)cc1OC		broth microdilution	vancomycin-resistant			20 µM
CC[C@H](C)[C@@H]1NC(=O)[C@H](C(C)C)NC(=O)[C@H](C(C)C)NC(=O)[C@H](CC(C)C)NC(=O)C[C@@H](C(=O)N[C@@H](Cc2c[nH]c3ccccc23)C(=O)N[C@@H](CC(N)=O)C(=O)N[C@@H](C)C(=O)N2CCC[C@H]2C(=O)NCC(=O)N[C@@H](Cc2c[nH]c3ccccc23)C(=O)N[C@@H](Cc2ccccc2)C(=O)O)NC(=O)[C@H](C)NC(=O)[C@H](CCC(N)=O)NC(=O)[C@H](C(C)C)NC1=O			vancomycin-resistant 1010798			> 32 µg/mL
CC(C)C[C@H](NC(=O)[C@@H](NC(=O)[C@H](CCCNC(=N)N)NC(=O)[C@H](CCC(N)=O)NC(=O)[C@H](Cc1ccccc1)NC(=O)[C@H](Cc1ccc(O)cc1)NC(=O)[C@H](CC(N)=O)NC(=O)[C@H](Cc1c[nH]c2ccccc12)NC(=O)[C@@H](NC(=O)[C@H](CCCNC(=N)N)NC(=O)[C@H](CCCCN)NC(=O)[C@@H](N)Cc1ccccc1)C(C)C)C(C)C)C(=O)N[C@H](C(=O)N[C@@H](CCCCN)C(=O)N[C@@H](CCCCN)C(=O)N[C@@H](Cc1ccc(O)cc1)C(N)=O)C(C)C		broth dilution	KCTC 3511			> 100 µM
C#CCNC(=O)[C@H]1NC(=O)[C@H]2NC(=O)[C@H](NC(=O)[C@@H]3NC(=O)[C@H](CC(N)=O)NC(=O)[C@H](NC(=O)[C@@H](CC(C)C)NC)[C@H](O)c4ccc(c(Cl)c4)Oc4cc3cc(c4O[C@@H]3O[C@H](CO)[C@@H](O)[C@H](O)[C@H]3O[C@H]3C[C@](C)(N)[C@H](O)[C@H](C)O3)Oc3ccc(cc3Cl)[C@H]2O)c2ccc(O)c(c2)-c2c(O)cc(O)cc21		broth microdilution	vancomycin-resistant			11 µM
c1ccc(CCNC2CCCc3c2[nH]c2ccc(C4CCCCC4)cc32)cc1 (stereo not shown)		broth microdilution	JH2-2			2 µg/mL
CNC(C)C1CCC(N)C(OC2C(N)CC(N)C(OC3OCC(C)(O)C(NC)C3O)C2O)O1 (stereo not shown)			clinical isolate	18 to 20 h	37 °C	2 µM
CC[C@H](C)[C@H](N)C(=O)N[C@@H](CCCNC(=N)N)C(=O)N[C@H](C(=O)N[C@@H](Cc1c[nH]c2ccccc12)C(=O)N[C@@H](Cc1ccccc1)C(=O)N[C@H](C(=O)N[C@@H](CCCCN)C(=O)N[C@H](C(=O)N[C@@H](CCCNC(=N)N)C(=O)N[C@@H](CCCCN)C(=O)N[C@@H](CCSC)C(=O)N[C@@H](CCCCN)C(=O)N[C@@H](C)C(=O)N[C@H](C(=O)N[C@@H](Cc1ccc(O)cc1)C(=O)N[C@@H](Cc1c[nH]cn1)C(N)=O)[C@@H](C)CC)C(C)C)[C@@H](C)CC)C(C)C		broth dilution	KCTC 3511			12.5 µM
CN[C@@H]1[C@H](O)[C@H](NC)[C@H]2O[C@]3(O)[C@H](O[C@@H]2[C@H]1O)O[C@H](C)C[C@H]3NC(=O)Cc1ccc(F)cn1	microbial growth	broth dilution	ATCC33186			25 µg/mL
CN[C@H](CC(C)C)C(=O)N[C@H]1C(=O)N[C@@H](CC(N)=O)C(=O)N[C@H]2C(=O)N[C@H]3C(=O)N[C@H](C(=O)N[C@H](C(=O)NCc4cn(CC(=O)N[C@H](C(=O)N[C@@H](CCN)C(=O)N[C@H]5CCNC(=O)[C@H]([C@@H](C)O)NC(=O)[C@H](CCN)NC(=O)[C@H](CCN)NC(=O)[C@H](CC(C)C)NC(=O)[C@@H](CC(C)C)NC(=O)[C@H](CCN)NC5=O)[C@@H](C)O)nn4)c4cc(O)cc(O)c4-c4cc3ccc4O)[C@H](O)c3ccc(c(Cl)c3)Oc3cc2cc(c3O[C@@H]2O[C@H](CO)[C@@H](O)[C@H](O)[C@H]2O[C@H]2C[C@](C)(N)[C@H](O)[C@H](C)O2)Oc2ccc(cc2Cl)[C@H]1O		broth microdilution	vancomycin-resistant			3 µM
CC(C)[C@H](NC(=O)CNC(=O)CNC(=O)[C@H](Cc1ccc(O)cc1)NC(=O)[C@H](CS)NC(=O)[C@@H](NC(=O)[C@H](Cc1c[nH]c2ccccc12)NC(=O)[C@H](Cc1ccccc1)NC(=O)[C@H](CS)NC(=O)[C@H](Cc1c[nH]c2ccccc12)NC(=O)[C@@H](N)CCCNC(=N)N)C(C)C)C(=O)N[C@@H](CS)C(=O)N[C@@H](Cc1ccc(O)cc1)C(=O)N[C@@H](CCCNC(=N)N)C(=O)N[C@@H](CCCNC(=N)N)C(=O)N[C@@H](CS)C(=O)N[C@@H](CCCNC(=N)N)C(=O)O			ATCC 29212			2.2 µg/mL
CN[C@H](CC(C)C)C(=O)N[C@H]1C(=O)N[C@@H](CC(N)=O)C(=O)N[C@H]2C(=O)N[C@H]3C(=O)N[C@H](C(=O)N[C@H](C(=O)O)c4cc(O)cc(O)c4-c4cc3ccc4O)[C@H](O)c3ccc(c(Cl)c3)Oc3cc2cc(c3O[C@@H]2O[C@H](CO)[C@@H](O)[C@H](O)[C@H]2O[C@H]2C[C@](C)(N)[C@H](O)[C@H](C)O2)Oc2ccc(cc2Cl)[C@H]1O			clinical isolate	18 to 20 h	37 °C	< 1 µM
CN[C@@H]1[C@H](O)[C@H](NC)[C@H]2O[C@]3(O)[C@H](O[C@@H]2[C@H]1O)O[C@H](C)C[C@H]3NC(=O)CNC(C)(C)C	microbial growth	broth dilution	ATCC33186			> 200 µg/mL
CC[C@H](C)[C@H](NC(=O)[C@H](CCCNC(=N)N)NC(=O)[C@@H]1CCCN1C(=O)[C@H](CCCNC(=N)N)NC(=O)[C@H](Cc1ccccc1)NC(=O)[C@H](Cc1c[nH]cn1)NC(=O)[C@H](CCCNC(=N)N)NC(=O)[C@H](CC(C)C)NC(=O)[C@H](CCCCN)NC(=O)CNC(=O)[C@H](CC(C)C)NC(=O)[C@H](Cc1ccccc1)NC(=O)[C@H](CCCNC(=N)N)NC(=O)CNC(=O)[C@H](Cc1ccccc1)NC(=O)[C@H](CCCNC(=N)N)NC(=O)CNC(=O)[C@H](CCCNC(=N)N)NC(=O)[C@H](CCC(N)=O)NC(=O)[C@@H](NC(=O)[C@@H](N)CC(C)C)[C@@H](C)CC)C(=O)N[C@@H](CCCCN)C(=O)N[C@@H](Cc1ccccc1)C(=O)N[C@@H](CCCCN)C(=O)NCC(=O)N[C@@H](CCCCN)C(=O)N[C@@H](C)C(=O)NCC(=O)N[C@@H](Cc1c[nH]c2ccccc12)C(=O)N[C@H](C(=O)N[C@H](C(=O)NCC(=O)O)C(C)C)[C@@H](C)O			ATCC 29212			4.39 µg/mL

For quick reference, copied from above:
Compound	effect on	method	strain	time	temperature	MIC
CN[C@@H]1[C@H](O)[C@H](NC)[C@H]2O[C@]3(O)[C@H](O[C@@H]2[C@H]1O)O[C@H](C)C[C@H]3NC(=O)CNC(C)(C)C	microbial growth	broth dilution	ATCC33186			> 200 µg/mL
CC[C@H](C)[C@H](NC(=O)[C@H](CCCNC(=N)N)NC(=O)[C@@H]1CCCN1C(=O)[C@H](CCCNC(=N)N)NC(=O)[C@H](Cc1ccccc1)NC(=O)[C@H](Cc1c[nH]cn1)NC(=O)[C@H](CCCNC(=N)N)NC(=O)[C@H](CC(C)C)NC(=O)[C@H](CCCCN)NC(=O)CNC(=O)[C@H](CC(C)C)NC(=O)[C@H](Cc1ccccc1)NC(=O)[C@H](CCCNC(=N)N)NC(=O)CNC(=O)[C@H](Cc1ccccc1)NC(=O)[C@H](CCCNC(=N)N)NC(=O)CNC(=O)[C@H](CCCNC(=N)N)NC(=O)[C@H](CCC(N)=O)NC(=O)[C@@H](NC(=O)[C@@H](N)CC(C)C)[C@@H](C)CC)C(=O)N[C@@H](CCCCN)C(=O)N[C@@H](Cc1ccccc1)C(=O)N[C@@H](CCCCN)C(=O)NCC(=O)N[C@@H](CCCCN)C(=O)N[C@@H](C)C(=O)NCC(=O)N[C@@H](Cc1c[nH]c2ccccc12)C(=O)N[C@H](C(=O)N[C@H](C(=O)NCC(=O)O)C(C)C)[C@@H](C)O			ATCC 29212			4.39 µg/mL
